# Published values gathered from unrelated publications.
# “And” joins repeats or separate records; there may be more than shown. ± gives the spread as reported.
Compound,tested on,test,system,conditions,how to read,quantity,result
COc1ccccc1-c1n[nH]c2nc(N[C@H]3CC[C@H](NS(=O)(=O)CC(C)C)CC3)ncc12,,"bead binding, competition bead pull-down, refers to: LINJ.02.0430",Leishmania donovani extract,10 µM,baseline: vehicle,relative abundance,0.85
CC(C)C[C@@H]1NC(=O)[C@@H](Cc2c[nH]c3ccccc23)NC(=O)[C@H](CCCNC(=N)N)NC(=O)[C@@H](CCC(=O)O)NC(=O)[C@H](CCC(N)=O)NC(=O)[C@@H](CCC(=O)O)NC(=O)[C@H](CCCNC(=N)N)NC(=O)[C@@H](Cc2c[nH]c3ccccc23)NC1=O,,"Luminex, refers to: MIG","LDLr-/- mice, Western diet, liver","dose not given, 4 weeks",,cytokine level,1200 ± 650 pg/g tissue
CC(C)CC(C(=O)N1CC2(CC1C#N)C(=O)Nc1ccccc12)N(C)C(=O)c1cc2c(F)cc(F)c(F)c2[nH]1 (stereo not drawn),human coronavirus NL63,viral replication,LLC-MK2,0.0016 µM,,inhibition,0%
Cc1cc(Oc2nc(N3CC[C@@H](c4ccncc4)C3)ncc2F)[nH]n1,Mycobacterium tuberculosis,OD,H37Rv PurF CRISPRi knockdown,"0.000488 µM, together with: anhydrotetracycline low",,normalised growth,98% and 100% and 99%
CC(C)(C)C(=O)OCOP(=O)(OCOC(=O)C(C)(C)C)C1CCCN(O)C1=O (stereo not drawn),MDA-MB-435,,,,,log LC50,> -4 log M
Cc1ccc(NS(=O)(=O)c2c(C(=O)N3CCCCCC3)c(C)n(C)c2C)c(Cl)c1,Fowlpox virus,viral infection,CEF,0.046 µM,baseline: untreated,infection,107% and 92.7% and 82.7%
CCOC(=O)C1(Cc2ccc(F)cc2)Oc2cc(F)ccc2N(Cc2ccc(F)cc2)C1=O (stereo not drawn),Arabidopsis thaliana,"root length, petri dish germination","Col-0, 1/2 MS medium","200 µg/mL, 7 days, 22 °C, dark",,inhibition,52.9%
COc1ccccc1-c1n[nH]c2nc(NC3CCN(C(=O)Cc4ccc(F)cc4F)CC3)ncc12,,"bead binding, competition bead pull-down, refers to: LINJ.35.4620",Leishmania donovani extract,10 µM,baseline: vehicle,relative abundance,0.58
Cc1cc(C(=O)Nc2nc3cccc(C)c3n2[C@H]2CCCCN(C(=O)/C=C/CN(C)C)C2)ccn1,Trypanosoma brucei brucei,,2T1 wild type,0.00013 µM,,survival,102% and 107% and 91.5% and 103% and 94.3%

# For quick reference, copied from above:
Compound,tested on,test,system,conditions,how to read,quantity,result
Cc1ccc(NS(=O)(=O)c2c(C(=O)N3CCCCCC3)c(C)n(C)c2C)c(Cl)c1,Fowlpox virus,viral infection,CEF,0.046 µM,baseline: untreated,infection,107% and 92.7% and 82.7%
